Published values of several laboratories.
Lines come from different studies, so protocols differ. Substitutions count along the parent as printed. ± marks the error that the study gave.
TFRC: TFRC fragment (Homo sapiens)
PRIMPOL: PRIMPOL 1-560 (Homo sapiens, UniProt Q96LW4)
UniProt Q96LW4, sequence (whole entry, looked up): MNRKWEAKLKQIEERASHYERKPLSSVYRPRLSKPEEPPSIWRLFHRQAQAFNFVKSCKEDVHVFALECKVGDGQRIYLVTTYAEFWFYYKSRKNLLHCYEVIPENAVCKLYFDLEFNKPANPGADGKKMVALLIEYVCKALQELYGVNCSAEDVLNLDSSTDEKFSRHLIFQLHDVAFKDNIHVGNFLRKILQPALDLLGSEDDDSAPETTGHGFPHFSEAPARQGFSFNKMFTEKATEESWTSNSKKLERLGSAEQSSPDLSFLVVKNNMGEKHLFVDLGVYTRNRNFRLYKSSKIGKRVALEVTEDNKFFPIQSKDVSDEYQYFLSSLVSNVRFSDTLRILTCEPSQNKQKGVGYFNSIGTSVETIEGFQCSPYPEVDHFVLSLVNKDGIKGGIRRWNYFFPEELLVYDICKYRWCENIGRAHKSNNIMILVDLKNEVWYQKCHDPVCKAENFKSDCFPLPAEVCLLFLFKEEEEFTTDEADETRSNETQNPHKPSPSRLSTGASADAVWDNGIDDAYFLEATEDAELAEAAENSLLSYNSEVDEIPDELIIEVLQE
GZF1: GZF1 250-711 (Homo sapiens, UniProt Q9H116)
UniProt Q9H116, sequence (whole entry, unmodified, looked up): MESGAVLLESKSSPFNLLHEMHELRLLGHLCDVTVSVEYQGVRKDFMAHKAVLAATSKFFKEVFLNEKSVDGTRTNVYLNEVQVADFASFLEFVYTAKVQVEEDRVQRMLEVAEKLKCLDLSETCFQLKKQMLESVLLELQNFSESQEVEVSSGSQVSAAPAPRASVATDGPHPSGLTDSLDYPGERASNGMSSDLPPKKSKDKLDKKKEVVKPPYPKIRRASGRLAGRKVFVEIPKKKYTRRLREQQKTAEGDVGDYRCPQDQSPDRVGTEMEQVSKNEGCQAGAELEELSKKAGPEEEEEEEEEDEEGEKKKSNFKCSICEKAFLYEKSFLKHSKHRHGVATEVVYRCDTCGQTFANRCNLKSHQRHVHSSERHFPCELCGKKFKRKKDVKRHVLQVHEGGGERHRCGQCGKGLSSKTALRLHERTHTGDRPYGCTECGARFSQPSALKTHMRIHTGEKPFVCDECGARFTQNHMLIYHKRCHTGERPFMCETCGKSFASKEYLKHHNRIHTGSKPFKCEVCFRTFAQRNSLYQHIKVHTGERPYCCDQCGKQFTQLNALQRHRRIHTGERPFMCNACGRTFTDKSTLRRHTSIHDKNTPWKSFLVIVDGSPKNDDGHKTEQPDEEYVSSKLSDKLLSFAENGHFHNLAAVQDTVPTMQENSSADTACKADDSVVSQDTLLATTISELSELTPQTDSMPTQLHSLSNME
P1: Fgfr1 (Mus musculus); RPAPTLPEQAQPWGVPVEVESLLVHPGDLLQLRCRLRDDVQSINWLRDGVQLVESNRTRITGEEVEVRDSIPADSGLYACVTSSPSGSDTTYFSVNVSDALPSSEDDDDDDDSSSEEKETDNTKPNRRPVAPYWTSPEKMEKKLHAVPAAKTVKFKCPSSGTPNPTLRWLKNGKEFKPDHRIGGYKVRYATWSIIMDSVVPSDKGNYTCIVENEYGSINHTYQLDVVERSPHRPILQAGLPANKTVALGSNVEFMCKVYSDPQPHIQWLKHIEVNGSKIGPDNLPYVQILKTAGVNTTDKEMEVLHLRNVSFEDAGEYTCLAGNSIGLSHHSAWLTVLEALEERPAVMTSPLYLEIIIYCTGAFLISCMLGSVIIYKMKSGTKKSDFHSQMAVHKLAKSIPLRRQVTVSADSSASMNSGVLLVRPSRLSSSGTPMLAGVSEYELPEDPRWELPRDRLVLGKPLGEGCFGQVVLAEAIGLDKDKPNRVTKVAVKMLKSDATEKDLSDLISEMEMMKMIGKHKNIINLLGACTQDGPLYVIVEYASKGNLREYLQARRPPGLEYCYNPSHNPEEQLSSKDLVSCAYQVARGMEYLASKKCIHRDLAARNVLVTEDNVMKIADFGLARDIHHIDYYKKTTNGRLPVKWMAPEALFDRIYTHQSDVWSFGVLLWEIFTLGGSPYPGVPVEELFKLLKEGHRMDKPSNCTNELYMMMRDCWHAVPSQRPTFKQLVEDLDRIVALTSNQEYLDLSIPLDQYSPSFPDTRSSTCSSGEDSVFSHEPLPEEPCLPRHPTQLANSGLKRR
UniProt P49116, sequence (whole entry, looked up): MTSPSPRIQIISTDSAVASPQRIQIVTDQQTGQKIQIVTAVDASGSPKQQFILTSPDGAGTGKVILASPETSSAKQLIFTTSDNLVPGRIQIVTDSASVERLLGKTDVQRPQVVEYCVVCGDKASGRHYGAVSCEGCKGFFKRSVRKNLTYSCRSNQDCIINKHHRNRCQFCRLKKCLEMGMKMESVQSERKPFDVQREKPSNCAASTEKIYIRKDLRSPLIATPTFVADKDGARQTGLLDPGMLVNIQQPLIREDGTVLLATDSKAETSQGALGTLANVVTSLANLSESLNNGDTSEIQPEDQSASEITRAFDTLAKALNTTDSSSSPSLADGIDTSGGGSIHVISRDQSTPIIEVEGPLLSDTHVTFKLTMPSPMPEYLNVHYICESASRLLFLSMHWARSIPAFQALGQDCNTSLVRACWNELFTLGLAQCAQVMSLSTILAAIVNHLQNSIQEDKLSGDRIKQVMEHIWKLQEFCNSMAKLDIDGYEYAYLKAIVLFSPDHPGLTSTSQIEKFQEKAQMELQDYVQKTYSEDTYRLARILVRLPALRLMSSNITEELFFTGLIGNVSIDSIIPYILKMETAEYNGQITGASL
UniProt P14866, sequence (whole entry, looked up): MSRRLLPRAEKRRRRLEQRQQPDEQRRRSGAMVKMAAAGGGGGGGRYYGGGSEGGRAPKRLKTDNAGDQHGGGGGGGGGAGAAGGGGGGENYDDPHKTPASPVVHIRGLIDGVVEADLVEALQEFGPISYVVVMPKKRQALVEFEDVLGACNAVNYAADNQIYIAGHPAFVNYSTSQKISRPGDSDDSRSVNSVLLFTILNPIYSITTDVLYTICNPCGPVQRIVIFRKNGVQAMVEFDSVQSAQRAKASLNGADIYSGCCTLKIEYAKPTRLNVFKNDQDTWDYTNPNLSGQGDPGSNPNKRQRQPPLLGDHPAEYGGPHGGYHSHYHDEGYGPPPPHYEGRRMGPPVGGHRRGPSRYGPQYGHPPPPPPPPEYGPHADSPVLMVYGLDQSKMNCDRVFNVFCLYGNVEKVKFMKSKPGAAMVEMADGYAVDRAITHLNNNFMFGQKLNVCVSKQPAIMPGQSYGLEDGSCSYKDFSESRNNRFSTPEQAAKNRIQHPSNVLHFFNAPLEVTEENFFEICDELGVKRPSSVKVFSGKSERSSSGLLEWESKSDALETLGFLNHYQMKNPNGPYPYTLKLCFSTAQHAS

| Substance | target or system | test | test system | conditions | how to read | measurement | value |
| --- | --- | --- | --- | --- | --- | --- | --- |
| AACGUACUUUAAGGCCUAUUGAGGAAACUC (ssDNA; all dC Pp-dC; all dU Nap-dU) | PCSK9 fragment (Homo sapiens) | filter binding | – | – | – | Kd | 0.0147 nM |
| GGGGCUCAAUGCGUUCACGUUUAUUCACAUUUUGAAUUGAGCAUG (structured RNA; 2'-F pyrimidines) | TFRC | SPR | folded RNA | – | – | Kd | 1.46 nM |
| DNA 1 TTTGCCTCGAGCCAGCCGCAGACGCAC / DNA 2 CCTAGGTGCGTCTGCGGCTGGCTCGAGGC (dsDNA; primer-template, 24 bp, 5 nt overhang) | PRIMPOL | fluorescence polarization | double-stranded DNA | added: Mg2+ 5 mM | – | Kd | 1200 ± 550 nM |
| CACGCUCAUGCACACACCCACA (ssRNA) | HNRNPL 102-270 (Homo sapiens, UniProt P14866) | SPR | RNA | – | – | Kd | 21.4 ± 9.3 nM |
| GATCTCTGCGTGCGCCTCTATAGCCTACTG (dsDNA) | GZF1 | competition | double-stranded DNA, one strand shown | – | – | binding | binds |
| TTTGCCTCGAGCCAGCCGCAGACGCAC (ssDNA) | PRIMPOL | fluorescence polarization | single-stranded DNA | added: Mn2+ 5 mM | – | Kd | 670 ± 180 nM |
| GGCAGAGGTCAAAAAAAGGTCAAACGT (dsDNA) | NR2C2 113-200 (Homo sapiens, UniProt P49116) | MST | double-stranded DNA, one strand shown | – | – | Kd | 200 nM |
| DNA 1 TTTGGGGGAAGGATTC / DNA 2 TCACGGAATCCTTCCCCC (dsDNA; primer-template, 13 bp, 5 nt overhang) | PRIMPOL | fluorescence polarization | double-stranded DNA | added: Mn2+ 5 mM | – | Kd | 27 ± 8 nM |
| ATCAGGCTGGATGGTAGCTCGGTCGGGGTGGGTGGGTTGGCAAGTCTGAT (DNA stem-loop; 8 bp stem, G:T mismatch, G-rich loop) | MET full-length, on A549 cells (Homo sapiens, UniProt P08581) | flow cytometry | A549 | in cells, not purified | – | Kd | 41.2 nM |
| TATTTGGAATGCGCCGCCGTAAACCCGGCT (dsDNA) | GZF1 | competition | double-stranded DNA, one strand shown | – | – | binding | no binding |
| P1 L402A V408A Y442F Y709F Y745F Y755F | PIK3R2 (Mus musculus) | proximity ligation assay | embryo sections | read off a plot | higher = more proximity | signal | 90 puncta |
| TATTTGGAATGTACCGCTATAAACCCGGCT (dsDNA) | GZF1 | competition | double-stranded DNA, one strand shown | – | – | binding | no binding |
| UUUAUUCACAUUUUUGAAUUGA (structured RNA; 2'-F pyrimidines) | TFRC | SPR | folded RNA | – | – | Kd | 0.022 nM |

For quick reference, copied from above:
| Substance | target or system | test | test system | conditions | how to read | measurement | value |
| --- | --- | --- | --- | --- | --- | --- | --- |
| TATTTGGAATGTACCGCTATAAACCCGGCT (dsDNA) | GZF1 | competition | double-stranded DNA, one strand shown | – | – | binding | no binding |
